Measurements from different studies.
A part holds a random share of what one study measured.

Block 1 — observed: enzyme activity; mode: inhibitor; tested at: 20 µM
Target: Replicase polyprotein 1ab, polymerase (rep, Severe acute respiratory syndrome coronavirus 2, UniProt P0DTD1)
| Structure (SMILES) | inhibition [%] |
| --- | --- |
| COc1ccc(N(C)c2nc(C)nc3ccccc23)cc1 | -9.26 |
| O=c1[nH]c(=O)n([C@H]2C[C@H](O)[C@@H](CO)O2)cc1I | -3.66 |
| C[C@]12Cc3c[nH]nc3C[C@@H]1CC[C@@H]1[C@@H]2CC[C@@]2(C)[C@H]1CC[C@]2(C)O | 3.01 |
| O=C(O)CNC(=O)c1c(O)c2ccccc2n(Cc2ccccc2)c1=O | 2.87 |
| Cc1cc(O)c2c(c1)C(=O)c1cccc(O)c1C2=O | -2.93 |
| C[C@H]1NCc2cc(-c3ccc4c(=O)c(C(=O)O)cn(C5CC5)c4c3OC(F)F)ccc21 | 1.89 |
| CC(=O)OCC(=O)[C@@]1(O)CC[C@H]2[C@@H]3CCC4=CC(=O)CC[C@]4(C)[C@@]3(F)[C@@H](O)C[C@@]21C | 8.77 |
| O=C(O)c1ccccc1O | 10.7 |
| C[C@H](N)C(=O)NCC(=O)N[C@H]1CSSC[C@@H](C(=O)O)NC(=O)[C@H](CO)NC(=O)[C@H]([C@@H](C)O)NC(=O)[C@H](Cc2ccccc2)NC(=O)[C@H]([C@@H](C)O)NC(=O)[C@H](CCCCN)NC(=O)[C@H](Cc2c[nH]c3ccccc23)NC(=O)[C@H](Cc2ccccc2)NC(=O)[C@H](Cc2ccccc2)NC(=O)[C@H](CC(N)=O)NC(=O)[C@H](CCCCN)NC1=O | 5.76 |
| CCCCC(CC)COc1ccc(-c2nc(-c3ccc(OC)cc3)nc(-c3ccc(OCC(CC)CCCC)cc3O)n2)c(O)c1 (stereo not shown) | -9.23 |
| CCOc1cc(/C=C2/C(=O)N(c3ccccc3)N=C2C)cc(Cl)c1OCC(=O)OC | -1.81 |
| CN1CCN(Cc2ccc(Nc3ncc(Cl)c(Nc4ccccc4S(=O)(=O)N(C)C)n3)cc2)CC1 | -1.63 |
| O=C(O)CC/C=C\C[C@H]1CO[C@@H](c2ccccc2Cl)O[C@H]1c1ccccc1O | 10.9 |
| COCc1c(-c2ccc(NC(=O)Nc3cc(C(F)(F)F)ccc3F)c(F)c2)c2c(N)ncnn2c1CN1CCOCC1 | -9.87 |
| CC(C)CN(C[C@@H](O)[C@H](Cc1ccccc1)NC(=O)O[C@H]1CCOC1)S(=O)(=O)c1ccc(N)cc1 | 0.65 |
| COC(=O)C1=C(C#N)NC(C)=C(C(=O)OC(C)C)C1c1cccc([N+](=O)[O-])c1 (stereo not shown) | 2.8 |
| N#CCC(=O)NN | 3.01 |
| CN1CCN(c2ncc(-c3cc(Cl)cc(Cl)c3Cl)c(N)n2)CC1 | -6 |
| CS(=O)(=O)c1ccc([C@@H](O)[C@@H](CO)NC(=O)C(Cl)Cl)cc1 | -1.7 |
| CC[N+](CC)(CC)CCC(O)(c1ccccc1)C1CCCCC1 (stereo not shown) | -3.54 |
| CC1=C(C(=O)Nc2cc3cn[nH]c3cc2F)C(c2ccc(C(F)(F)F)cc2)CC(=O)N1 (stereo not shown) | 2.65 |
| C=CCc1ccc(O)c(-c2ccc(O)c(CC=C)c2)c1 | 2.24 |
| CC(C)S(=O)(=O)NC[C@H](C)c1ccc(-c2ccc(CCNS(C)(=O)=O)cc2)cc1 | -0.75 |
| O=C(Nc1cc(C(F)(F)F)cc(C(F)(F)F)c1)c1cnc(Cl)nc1C(F)(F)F | -0.26 |

Block 2 — method: competition protein-binding microarray; form: double-stranded DNA, one strand shown; matrix: in vitro; tested at: 2 µM; together with: Cbf1 competitor, 0.05 µM; reading: higher = stronger binding
Target: Phosphate system positive regulatory protein PHO4, full length, GST-tagged (PHO4, Saccharomyces cerevisiae, UniProt P07270, residues 1-312)
Setting: whole 60-bp probe, lowest competitor level
Residues (chain): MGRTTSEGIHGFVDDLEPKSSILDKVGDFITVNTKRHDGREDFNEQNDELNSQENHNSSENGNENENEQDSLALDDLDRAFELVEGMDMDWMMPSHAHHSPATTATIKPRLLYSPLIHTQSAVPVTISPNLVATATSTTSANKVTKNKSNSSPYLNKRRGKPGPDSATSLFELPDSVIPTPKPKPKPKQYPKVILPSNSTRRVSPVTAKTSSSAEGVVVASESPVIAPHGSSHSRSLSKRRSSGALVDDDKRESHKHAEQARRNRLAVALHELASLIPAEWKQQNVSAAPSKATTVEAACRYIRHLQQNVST
| Strand | fluorescence intensity |
| --- | --- |
| TACATTGCTGTATTGCACGGCCCTTGCGGGTATGGCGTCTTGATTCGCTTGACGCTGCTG | 5930 a.u. |
| ACCCGCCCCTCGGGGCACGCGGTCTCCCGGCTTCTCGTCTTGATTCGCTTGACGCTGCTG | 10300 a.u. |
| TCACGGAAATCTTATCATGTGTCGCCCCATCCAATTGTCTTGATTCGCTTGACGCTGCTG | 6490 a.u. |
| AATAGGCTTTGCCTACACGTGACTCGTATTTGGTGTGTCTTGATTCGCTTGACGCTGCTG | 13500 a.u. |
| GTTGCTGCACTTGCTTGCGTGGGTACTTTTTGTCGGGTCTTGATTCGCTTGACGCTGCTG | 7050 a.u. |
| TGCGCAACAACTTGTCACCTTACTTTATGTCTAGAAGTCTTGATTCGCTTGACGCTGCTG | 3420 a.u. |
| AAAGCGGTAATTTTTCACGTGGTATCAAATATCTATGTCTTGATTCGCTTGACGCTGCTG | 14400 a.u. |
| AGAATCAAAGCTCACCACGTCATGGTTGCGAAAGCCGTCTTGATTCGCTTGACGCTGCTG | 5960 a.u. |

Block 3 — observed: enzyme activity; mode: inhibitor
Target: Replicase polyprotein 1ab, main protease (rep, Severe acute respiratory syndrome coronavirus 2, UniProt P0DTD1)
| Compound | IC50 |
| --- | --- |
| Cc1ccc(S(=O)(=O)N[C@@H](Cc2ccccc2)C(=O)CCl)cc1 | 840 nM |
| O=C(NC(=S)N1CCCc2ccccc21)c1ccccc1 | > 20000 nM |
| CCN(CC)S(=O)(=O)c1cccc(-n2sc3ccccc3c2=O)c1 | 5750 nM |
| O=[N+]([O-])c1ccc(Sc2cccc[n+]2[O-])c2nonc12 | 530 nM |

Block 4 — method: RNA Bind-n-Seq; form: RNA; matrix: in vitro; tested at: 365 nM; baseline: no-protein control; reading: higher = stronger binding
Target: RNA binding protein fox-1 homolog 2, RRM domain, GST-SBP tag (RBFOX2, Homo sapiens, UniProt O43251-10, residues 100-194)
Setting: natural RNA segment, single round, ends assumed
Construct (chain): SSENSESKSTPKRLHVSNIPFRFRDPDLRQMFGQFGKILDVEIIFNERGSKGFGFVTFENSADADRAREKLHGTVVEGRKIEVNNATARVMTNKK
| Strand | RBNS enrichment (R) |
| --- | --- |
| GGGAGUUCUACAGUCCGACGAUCUUACUGUGUUCUGCCCAGGCACCUGAUGAGGUACAUCCUGCAGUGCCUCUCUGUGCUUGGCUCUGGCAGAAGGCACCCAGUGACAUCAGGCAUCAGGCCCAGUGACAGUGUGGAAUUCUCGGGUGCCAA | 0.429 |
| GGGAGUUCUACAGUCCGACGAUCCCUGGAUGGCUUCUCUUGUCCACCCGAUCUCCCGUGUUACCAAUGUGUAUGGUCUCCUUCUCCCGAAAGUGUACUUAAUCUUUGCUUUCUUUGCACAAUGUCUUUGGUUGUGGAAUUCUCGGGUGCCAA | 0.833 |
| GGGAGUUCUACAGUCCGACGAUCAUGUCCCCAGUAUUUACUAUGAGUUGCUUCAGGUCAUUUUUUGAUUUUUUGUUUUUUCUUUUGGAAGUAGGUGUGGUAUAGUCGUUAGUAAAUGAAUCCCUGGGCAGGGAUGGAAUUCUCGGGUGCCAA | 0.461 |
| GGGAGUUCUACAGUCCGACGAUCUAAAGGCUUUUUAAUAGCAGACUUCCAAAAGAUUGCAUUUAGGAUUUCUAGCAUGCUUUUAAUUUCAGAUUUUCAGCUGACAUUAGCUAUAGUAUACAGUAGGUUAAGACUGGAAUUCUCGGGUGCCAA | 3.09 |
| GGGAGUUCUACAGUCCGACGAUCGGUGUUUUCCUCCCUUGCCCCAUUAUCUUUUCACCUCCCAGGUCUACCAUUUCAUGGUGGUCGUUGGGUCCGCCUAAAGGAUUUGAGCGUUUGCCAUUGCAAGCAUAGUGUGGAAUUCUCGGGUGCCAA | 0.411 |
| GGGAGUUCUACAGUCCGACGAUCUGAUCCUUUAUAUGUGUUUGGAGCUAUGAUAAGUUUUAUGGCAAGCAGUUGGUAUUGUUAACUUUUUAUGAUCAUCAAAAGUACAUAAAAGUCCUAUUAAUCCCCUUACUUGGAAUUCUCGGGUGCCAA | 0.336 |
| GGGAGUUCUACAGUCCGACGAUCCAUAGGUACCCAGGAUAUUGUGUUCGGAGAAAUAGACCGAUGAGCGAAAGCACCACCCUCGAGCUGCCUUGCCUGUCAGCUGCUCCUUCGAGGCCUGUGUCUGGUGGGAGUGGAAUUCUCGGGUGCCAA | 4.24 |
| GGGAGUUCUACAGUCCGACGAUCUUCAUUCCAACCCUCUUCUGCCUCUGCCGCUUGUGAGAGGACAAAUGGCCAUCCUCAGCAGGGUGGAGGGAGUGUGCGAGAAACCAGACACUUUGGUUUCUGUAAUCUUCUGGAAUUCUCGGGUGCCAA | 1.98 |

Block 5 — cell line: HEK-293T; observed: pseudovirus infection; method: FDA-approved drug library screen; organism: VSV pseudotyped with SARS-CoV-2 spike; tested at: 10 µM; time: 16 h; baseline: vehicle-treated
| Compound | GFP-positive cells |
| --- | --- |
| OC(CNCC(O)C1CCc2cc(F)ccc2O1)C1CCc2cc(F)ccc2O1 (stereo not shown) | 59.2% |
| CCCC1O[C@@H]2C[C@H]3[C@@H]4CCC5=CC(=O)C=C[C@]5(C)[C@H]4[C@@H](O)C[C@]3(C)[C@]2(C(=O)CO)O1 (stereo partly shown) | 70% |
| COc1ccnc(C[S+]([O-])c2nc3ccc(OC(F)F)cc3[nH]2)c1OC (stereo not shown) | 77.4% |
| C[C@H](CS)C(=O)N1CCC[C@H]1C(=O)O | 78% |
| C#C[C@]1(OC(C)=O)CC[C@H]2[C@@H]3CCC4=C[C@@H](OC(C)=O)CC[C@@H]4[C@H]3CC[C@@]21C | 74.4% |

Block 6 — method: protein-binding microarray; form: double-stranded DNA, one strand shown; matrix: in vitro; tested at: not given; reading: higher = stronger binding
Target: Protein C-ets-1 (ETS1, Homo sapiens, UniProt P14921, residues 1-441, full length assumed)
Sequence of UniProt P14921 (whole entry, looked up): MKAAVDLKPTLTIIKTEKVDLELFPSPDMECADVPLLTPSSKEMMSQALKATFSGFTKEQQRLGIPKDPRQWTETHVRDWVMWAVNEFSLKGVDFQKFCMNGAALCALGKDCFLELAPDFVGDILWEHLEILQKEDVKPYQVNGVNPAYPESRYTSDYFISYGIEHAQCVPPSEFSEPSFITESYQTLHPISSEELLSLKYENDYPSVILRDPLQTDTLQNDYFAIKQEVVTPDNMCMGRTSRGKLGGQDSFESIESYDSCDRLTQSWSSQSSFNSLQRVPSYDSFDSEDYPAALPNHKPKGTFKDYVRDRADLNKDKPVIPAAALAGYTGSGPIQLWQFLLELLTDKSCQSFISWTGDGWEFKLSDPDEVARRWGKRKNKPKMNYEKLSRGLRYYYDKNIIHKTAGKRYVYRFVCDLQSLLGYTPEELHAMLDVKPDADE
Setting: k-mer, scored over probes, only values ≥0.25
| Strand | E-score |
| --- | --- |
| ATAGGATA | 0.321 |
| AGCGGACG | 0.399 |
| CATCCCGG | 0.374 |
| ACGGAAAT | 0.465 |
| CACCCCGC | 0.252 |
| ACATCCAC | 0.3 |

A few entries again (block 1):
| Structure (SMILES) | inhibition [%] |
| --- | --- |
| O=C(O)CNC(=O)c1c(O)c2ccccc2n(Cc2ccccc2)c1=O | 2.87 |
| Cc1cc(O)c2c(c1)C(=O)c1cccc(O)c1C2=O | -2.93 |
| C[C@H]1NCc2cc(-c3ccc4c(=O)c(C(=O)O)cn(C5CC5)c4c3OC(F)F)ccc21 | 1.89 |
| CC(=O)OCC(=O)[C@@]1(O)CC[C@H]2[C@@H]3CCC4=CC(=O)CC[C@]4(C)[C@@]3(F)[C@@H](O)C[C@@]21C | 8.77 |
| O=C(O)c1ccccc1O | 10.7 |
| C[C@H](N)C(=O)NCC(=O)N[C@H]1CSSC[C@@H](C(=O)O)NC(=O)[C@H](CO)NC(=O)[C@H]([C@@H](C)O)NC(=O)[C@H](Cc2ccccc2)NC(=O)[C@H]([C@@H](C)O)NC(=O)[C@H](CCCCN)NC(=O)[C@H](Cc2c[nH]c3ccccc23)NC(=O)[C@H](Cc2ccccc2)NC(=O)[C@H](Cc2ccccc2)NC(=O)[C@H](CC(N)=O)NC(=O)[C@H](CCCCN)NC1=O | 5.76 |
| CCCCC(CC)COc1ccc(-c2nc(-c3ccc(OC)cc3)nc(-c3ccc(OCC(CC)CCCC)cc3O)n2)c(O)c1 (stereo not shown) | -9.23 |
| CCOc1cc(/C=C2/C(=O)N(c3ccccc3)N=C2C)cc(Cl)c1OCC(=O)OC | -1.81 |
